Literature values that unrelated publications cite.
Each numbered part shows a few of the values that one paper quotes.

Series 1 — cell line: MCF7; technique: microarray; tested at: concentration not given; relative to: DMSO
Structure (SMILES): CCCCCCCCNC(C)C(O)c1ccc(SC(C)C)cc1 (centres unmarked)
It gave 1.87 for “log2 fold change” (measured: SLCO4C1 mRNA).
It gave 1.11 for “log2 fold change” (measured: SLC38A7 mRNA).
It gave 2.07 for “log2 fold change” (measured: ZNF165 mRNA).
The “log2 fold change” was 2.33 (measured: TRIB1 mRNA).
The “log2 fold change” was 0.9 (measured: TSFM mRNA).

Series 2 — target: dopamine transporter
With `O=C1CC2(CCCC2)CC(=O)N1CCCCN1CCN(c2ncccn2)CC1` the IC50 was > 10000 nM.
`CC(C)NCC(O)COc1ccc(CC(N)=O)cc1` (centres unmarked) gave an IC50 of > 10000 nM.
`Oc1ncnc2[nH]ncc12` has an IC50 of > 10000 nM.
The IC50 of `CN(Cc1cnc2nc(N)nc(N)c2n1)c1ccc(C(=O)N[C@@H](CCC(=O)O)C(=O)O)cc1` is reported as > 10000 nM.
The IC50 of `Cn1c(=O)c2c(ncn2C)n(C)c1=O` is reported as > 10000 nM.

Series 3 — organism: Plasmodium falciparum; tested at: concentration not given
For `CC(CCc1ccccc1)NCC(O)c1ccc(O)c(C(N)=O)c1` (centres unmarked), activity read “active”.
`Clc1ccc2c(c1)C(N1CCNCC1)=Nc1ccccc1O2` — result for activity: “active”.
`CN1CCN(CCCN2c3ccccc3Sc3ccc(Cl)cc32)CC1` — result for activity: “active”.
`CC12CC3CC(C)(C1)CC(N)(C3)C2`: activity “active”.
`CSc1ccc2c(c1)N(CCC1CCCCN1C)c1ccccc1S2` (centres unmarked) — result for activity: “active”.
`OCCN(CCO)c1nc(N2CCCCC2)c2nc(N(CCO)CCO)nc(N3CCCCC3)c2n1` — result for activity: “active”.
`CN1CCN(C2=Nc3ccccc3Oc3ccc(Cl)cc32)CC1` — result for activity: “active”.
`CC(C)NCC(O)COc1cccc2ccccc12.Cl` (centres unmarked): activity “active”.
`O=C(CCNNC(=O)c1ccncc1)NCc1ccccc1` — result for activity: “active”.
For `CN1CCC(=C2c3ccccc3CC(=O)c3sccc32)CC1`, activity read “active”.
For `CNCCCN1c2ccccc2CCc2ccccc21`, activity read “active”.
`COc1ccccc1N1CCN(CCCNc2cc(=O)n(C)c(=O)n2C)CC1.Cl`: activity “active”.
`CN(C)CC[C@@H](c1ccc(Cl)cc1)c1ccccn1` — result for activity: “active”.
`CN(C)CC[C@@H](c1ccc(Br)cc1)c1ccccn1`: activity “active”.
For `CN(C)CCC=C1c2ccccc2COc2ccccc21`, activity read “active”.
`CCN(CC)C(=S)SSC(=S)N(CC)CC`: activity “active”.

Further values, each from its own experiment
The IC50 of `O=C(Nc1ccc(-n2nc(-c3cccnc3)cc2C(F)(F)F)cn1)c1ccc(-c2ccccc2)c(F)c1` is reported as > 3000 nM (EPHX2; biochemical activity).
`COc1cnc(-n2cnc(C)n2)c2c1c(C(=O)C(=O)N1CCN(C(=O)c3ccccc3)CC1)cn2COP(=O)(O)O` — result for “urinary recovery of radioactivity”: ~44% (healthy human volunteers, urine; oral, 300 mg single dose; relative to: dose).
`C[C@@]1(Cc2ccc(C#N)cc2)C(=O)N(c2cc(Cl)cc(Cl)c2)c2ncc(C(=O)NC3(c4nc(C5CCC5)no4)CC3)n21` gave an IC50 of > 1000 nM (ITGAL; cell-based).
`NC[C@@]1(CC(=O)O)[C@@H]2CC[C@H]3C[C@@H]2[C@@H]1C3` — result for “cumulative urinary excretion”: 79.2% (healthy humans, urine; 40 mg, 48 h; relative to: dose).
For `CCOC(=O)c1cc2cc(-c3cc(C(=O)NCc4ccc(C(=O)O)cc4)nn3C)ccc2[nH]1`, the IC50 was 1 nM (MMP13; biochemical activity).
With `COc1cccc(CNC(=O)c2nc3scc(COCc4ccc(C(=O)O)cc4)c3c(=O)[nH]2)c1` the IC50 was 0.0069 nM (MMP13 (human); enzyme activity).

Some of these lines once more (further values, each from its own experiment):
For `CCOC(=O)c1cc2cc(-c3cc(C(=O)NCc4ccc(C(=O)O)cc4)nn3C)ccc2[nH]1`, the IC50 was 1 nM (MMP13; biochemical activity).
`COc1cnc(-n2cnc(C)n2)c2c1c(C(=O)C(=O)N1CCN(C(=O)c3ccccc3)CC1)cn2COP(=O)(O)O` — result for “urinary recovery of radioactivity”: ~44% (healthy human volunteers, urine; oral, 300 mg single dose; relative to: dose).
